Assay results from different studies.
A part holds a random share of what one study measured. Substitutions count along the parent as printed.

Sample 1 — method: protein binding microarray; form: double-stranded DNA, one strand shown; matrix: in vitro; tested at: not given; reference: not given; reading: higher = stronger binding; quantity: E-score
Target: Histone acetyltransferase KAT6A, winged helix 2, GST fusion (KAT6A, Homo sapiens, UniProt Q92794, residues 85-181)
Setting: 8-mer, flanks averaged, mean of 2 arrays, mostly near background
Construct (chain): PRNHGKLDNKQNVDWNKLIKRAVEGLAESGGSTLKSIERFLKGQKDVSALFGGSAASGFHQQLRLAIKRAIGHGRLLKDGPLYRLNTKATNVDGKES
AACGCGTG: 0.0342
ATTAGCAC: 0.138
CAGCCGCC: 0.0636
CACGGTCA: -0.0838
CACGTCGC: -0.0782
CATAGCGG: 0.0126
TGTGCTAA: 0.217
ACTTACTG: -0.23
TGGCTACA: -0.0918
AGAAGCTA: 0.0214
GCGTGCCA: 0.0524
TGCCAACA: -0.0287
GATGATGA: -0.0845
TAGCGGCA: 0.0965
GGATGTGA: -0.0625
CTACAGGA: -0.139
CGCGGACC: 0.163
CCCTAGGA: 0.013

Sample 2 — method: aptamer microarray, sandwich; form: DNA with 2'F-ANA; matrix: in vitro; tested at: 200 nM; added: Cy3 exosite-II aptamer, 400 nM; reading: higher = stronger binding; quantity: mean fluorescence intensity; strand: GGTTGGTGTGGTTGG
Target: Prothrombin, mature alpha-thrombin (F2, Homo sapiens, UniProt P00734)
Setting: whole 15-mer aptamer, many near background
2'F-ANA at 1 3 4 5 6 7 10 11 14: 55.8 a.u.
2'F-ANA at 1 2 7 8 9 10 15: 58.8 a.u.
2'F-ANA at 5 6 7 9 10 14: 50 a.u.
2'F-ANA at 2 4 5 6 7 9 11 14: 48.2 a.u.
2'F-ANA at 4 10 11 12 13: 94.2 a.u.
2'F-ANA at 2 3 6 7 8 10 11 12: 387 a.u.
2'F-ANA at 2 8 10 11 12 14: 85.2 a.u.
2'F-ANA at 2 3 6 7 8 9 10 12 14: 261 a.u.
2'F-ANA at 2 3 5 6 8 9 11 13 15: 74.9 a.u.
2'F-ANA at 1 5 6 7 8 9 11 14 15: 65.7 a.u.
2'F-ANA at 4 5 6 10 11 12 14: 47.7 a.u.
2'F-ANA at 1 2 3 4 5 6 7 8 9 12 15: 108 a.u.
2'F-ANA at 1 2 3 6 7 10 14: 69.7 a.u.
2'F-ANA at 1 3 4 5 8 9 12 14 15: 48.3 a.u.
2'F-ANA at 1 2 3 4 8 9 11 13 14 15: 60.7 a.u.
2'F-ANA at 2 3 4 6 8 11 15: 491 a.u.
2'F-ANA at 1 2 4 6 8 11 12 13 14 15: 249 a.u.
2'F-ANA at 1 2 5 6 7 12 13 15: 83.5 a.u.
2'F-ANA at 3 4 6 7 8 9 11 12 14 15: 274 a.u.

Sample 3 — target: CCNE2, cyclin fold, Cln2 fusion (human); method: yeast growth competition, sequencing; matrix: yeast; setting: strong parent motif; reference: not given; reading: higher = stronger binding; quantity: normalised enrichment score
Parent: SCAPER docking peptide (human); SNARRSLNFGGST
R5A L7A: -0.0687
A3H: 0.385
T13S: 1.19
R5H: 0.195
N8V: 0.529
N2K: 1.3
R5A: -0.0102
R4A: -0.112
L7N: -0.000111
S1N: 1.34
A3V: 1.48
T13V: 1.72

Other studies, line by line
PhoQ, residues 284 288 289 292 302 303 GANMMA  fold induction (PhoP, residues 12 14 15 18 19 IQFRS (Escherichia coli, UniProt P23836); Sort-seq, item: YFP reporter; E. coli; PhoQ-PhoP variant library, added: 10 µM Mg2+; reference: high Mg2+ state, higher = stronger signaling): 2.68

Excerpt of the above (sample 2):
2'F-ANA at 1 5 6 7 8 9 11 14 15: 65.7 a.u.
2'F-ANA at 1 2 4 6 8 11 12 13 14 15: 249 a.u.
2'F-ANA at 5 6 7 9 10 14: 50 a.u.
2'F-ANA at 2 3 6 7 8 10 11 12: 387 a.u.
2'F-ANA at 3 4 6 7 8 9 11 12 14 15: 274 a.u.
2'F-ANA at 4 10 11 12 13: 94.2 a.u.
2'F-ANA at 2 3 5 6 8 9 11 13 15: 74.9 a.u.
